Measurements from different studies.
Numbered parts are unrelated; each lists some results of a single study. Positions count from the first letter of the parent shown.
Sequence of UniProt P51668 (whole entry, looked up): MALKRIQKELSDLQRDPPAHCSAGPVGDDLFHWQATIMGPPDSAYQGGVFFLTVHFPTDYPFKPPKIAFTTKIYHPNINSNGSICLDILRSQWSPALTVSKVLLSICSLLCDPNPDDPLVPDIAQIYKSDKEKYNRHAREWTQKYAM
Sequence of UniProt Q9Y2X8 (whole entry, looked up): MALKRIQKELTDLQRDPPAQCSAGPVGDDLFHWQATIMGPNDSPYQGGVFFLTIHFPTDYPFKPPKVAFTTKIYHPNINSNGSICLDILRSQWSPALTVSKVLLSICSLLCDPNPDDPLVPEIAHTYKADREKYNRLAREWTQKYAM
Sequence of UniProt P63146 (whole entry, looked up): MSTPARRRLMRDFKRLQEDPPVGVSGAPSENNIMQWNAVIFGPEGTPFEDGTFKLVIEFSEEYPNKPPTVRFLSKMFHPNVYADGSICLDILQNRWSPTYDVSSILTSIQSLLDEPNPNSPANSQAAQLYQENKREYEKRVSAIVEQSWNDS
Sequence of UniProt P62837 (whole entry, looked up): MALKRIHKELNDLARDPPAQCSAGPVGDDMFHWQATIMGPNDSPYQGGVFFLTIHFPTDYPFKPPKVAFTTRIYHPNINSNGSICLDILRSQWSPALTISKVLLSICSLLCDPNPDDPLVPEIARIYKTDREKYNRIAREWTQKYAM
Sequence of UniProt Q7Z7E8 (whole entry, looked up): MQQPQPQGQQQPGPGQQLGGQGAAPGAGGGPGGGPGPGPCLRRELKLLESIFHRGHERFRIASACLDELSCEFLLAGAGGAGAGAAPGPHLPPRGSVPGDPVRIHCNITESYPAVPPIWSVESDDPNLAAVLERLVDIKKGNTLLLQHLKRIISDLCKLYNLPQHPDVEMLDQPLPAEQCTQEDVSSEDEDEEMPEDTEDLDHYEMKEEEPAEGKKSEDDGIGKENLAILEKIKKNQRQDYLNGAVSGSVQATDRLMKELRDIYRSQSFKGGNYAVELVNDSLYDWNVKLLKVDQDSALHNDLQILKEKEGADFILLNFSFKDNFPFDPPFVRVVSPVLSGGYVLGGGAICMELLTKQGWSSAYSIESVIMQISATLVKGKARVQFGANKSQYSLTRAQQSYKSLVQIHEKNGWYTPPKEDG
Sequence of UniProt Q9H832 (whole entry, looked up): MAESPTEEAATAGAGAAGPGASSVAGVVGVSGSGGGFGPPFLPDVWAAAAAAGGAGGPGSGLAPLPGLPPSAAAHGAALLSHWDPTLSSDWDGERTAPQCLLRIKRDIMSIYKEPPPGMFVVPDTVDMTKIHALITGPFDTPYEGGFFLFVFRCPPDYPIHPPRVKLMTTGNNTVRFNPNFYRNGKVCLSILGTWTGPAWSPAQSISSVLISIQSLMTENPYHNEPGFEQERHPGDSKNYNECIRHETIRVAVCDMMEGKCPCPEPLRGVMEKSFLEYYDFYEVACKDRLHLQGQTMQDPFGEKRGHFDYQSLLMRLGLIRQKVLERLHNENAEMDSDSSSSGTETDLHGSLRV

Set 1
Target: ABI1, truncated, D143A, DHFR fusion (Arabidopsis thaliana)
Method: DHFR PCA, deep sequencing
Medium: yeast
Notes: methotrexate growth selection, single substitutions
With: (+)-ABA 58 µM
Reference: wild-type fitted maximum
Reading: higher = stronger binding
Starting sequence: PYL1, truncated, DHFR fusion (Arabidopsis thaliana); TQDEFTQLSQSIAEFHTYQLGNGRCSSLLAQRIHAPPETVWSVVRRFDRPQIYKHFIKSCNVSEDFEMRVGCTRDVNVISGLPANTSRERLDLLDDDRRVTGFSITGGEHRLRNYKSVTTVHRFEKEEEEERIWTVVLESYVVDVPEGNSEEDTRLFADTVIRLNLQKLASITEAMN; partner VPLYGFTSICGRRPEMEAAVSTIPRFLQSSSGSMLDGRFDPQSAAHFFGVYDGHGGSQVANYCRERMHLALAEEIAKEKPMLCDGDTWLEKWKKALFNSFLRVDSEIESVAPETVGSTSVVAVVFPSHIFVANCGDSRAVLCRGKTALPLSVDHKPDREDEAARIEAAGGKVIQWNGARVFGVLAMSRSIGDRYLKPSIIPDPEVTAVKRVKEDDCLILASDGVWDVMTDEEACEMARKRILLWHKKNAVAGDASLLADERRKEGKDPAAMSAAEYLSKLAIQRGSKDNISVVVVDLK
`D96R` — result for “relative binding score”: 6.81%.
`D65S` — result for “relative binding score”: 82.2%.
`L166Y`: “relative binding score” -8.26%.
`S104E`: “relative binding score” 39.7%.
`L8S`: “relative binding score” 32.4%.
For `G108M`, “relative binding score” read -0.402%.
`R163N` — result for “relative binding score”: 63%.
`T101M`: “relative binding score” 90%.
`V142Y`: “relative binding score” 53%.
`K54T` — result for “relative binding score”: 0.356%.
`E139V` — result for “relative binding score”: 79.7%.
`L28T`: “relative binding score” 64.5%.
`T6A` — result for “relative binding score”: 96.5%.
`T173R` — result for “relative binding score”: 4.07%.
Under “relative binding score”, `I133S` is recorded as 98.2%.
For `T39W`, “relative binding score” read 70.9%.
Under “relative binding score”, `N22D` is recorded as 95.5%.
`Q10W` — result for “relative binding score”: 67.1%.

Set 2
Target: Histone acetyltransferase KAT6A, winged helix 1, GST fusion (KAT6A, Homo sapiens, UniProt Q92794, residues 1-85)
Method: protein binding microarray
Form: double-stranded DNA, one strand shown
Medium: in vitro
Concentration: not given
Notes: 8-mer, flanks averaged, mean of 2 arrays, mostly near background
Reference: not given
Reading: higher = stronger binding
Target sequence (chain): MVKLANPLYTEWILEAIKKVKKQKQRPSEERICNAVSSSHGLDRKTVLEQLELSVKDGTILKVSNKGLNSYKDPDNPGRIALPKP
`CTCGCAAG` has an E-score of -0.195.
`GTGGTCCA` gave an E-score of -0.114.
With `ATCTTATG` the E-score was -0.0903.
`CGCGGCGC` has an E-score of 0.461.
`AATAAAAG` gave an E-score of -0.0536.
The E-score of `CTGTTTCA` is reported as -0.196.
With `GAAACAAC` the E-score was -0.0803.
With `CATGCCAG` the E-score was -0.163.
With `GTAAACCA` the E-score was 0.0556.
`CGCAGATC` gave an E-score of 0.197.
For `CGGAGCAG`, the E-score was 0.207.
With `AACTCAAC` the E-score was -0.255.
`GTGGATAA` has an E-score of -0.137.
With `CCCACAAC` the E-score was 0.0403.
`CGACATCA` has an E-score of -0.0242.
With `CTCTTCAA` the E-score was -0.1.
`GCTTCGTA` has an E-score of -0.06.
For `GCCAGCCA`, the E-score was -0.077.
With `ATGGACTA` the E-score was -0.116.
`CCGACATC` gave an E-score of 0.125.
`GTGCGTAA` gave an E-score of 0.0281.
The E-score of `GTCCCGAA` is reported as 0.0113.
The E-score of `TCTAGAAA` is reported as -0.0787.
`AAGGGCTG` gave an E-score of -0.192.
For `TAGGTTAA`, the E-score was -0.132.

Set 3
Sequence: B1 (MKRN2 RING domain)
Method: yeast two-hybrid
Medium: yeast
Notes: mostly zero background
Reference: not given
Reading: higher = stronger interaction
B1: MKRN2 RING domain (UniProt Q9H000); chain FAFQASQDKVCSICMEVILEKASASERRFGILSNCNHTYCLSCIRQWRCAKQFENPIIKSCPECRVISEFVIPSV
It gave 0 for “lacZ reporter activity” (UBE2B UBC core domain (UniProt P63146)).
For UBE2D2 UBC core domain (UniProt P62837): “lacZ reporter activity” read 0.
The “lacZ reporter activity” was 0 (UBE2Q1 UBC core domain (UniProt Q7Z7E8)).
UBE2D1 UBC core domain (UniProt P51668) — “lacZ reporter activity”: 0.
UBE2D4 UBC core domain (UniProt Q9Y2X8) — “lacZ reporter activity”: 0.
For UBE2Z UBC core domain (UniProt Q9H832): “lacZ reporter activity” read 0.

Set 4
Target: Cellular tumor antigen p53, full length (TP53, Homo sapiens, UniProt P04637, residues 1-393)
Method: protein-binding microarray
Form: hairpin DNA
Medium: in vitro
Concentration: not given
Notes: whole hairpin DNA, median over replicate spots
Reference: not given
Reading: higher = stronger binding
With `CCACACGAGGTGGCATGCCTTCCTAGGCATGCCACCTCGTGTGGACACTC` the median fluorescence was 6730 a.u.
With `CGGACCTGCCCGGGCATGTCTCCTGACATGCCCGGGCAGGTCCGACACTC (5mC at 6)` the median fluorescence was 15200 a.u.
`CGGACATGCCGGGGCATGTCTCCTGACATGCCCCGGCATGTCCGACACTC (5mC at 34)` has a median fluorescence of 17200 a.u.
With `CGGACATGCCGGGGCATGTCTCCTGACATGCCCCGGCATGTCCGACACTC (5mC at 10)` the median fluorescence was 15300 a.u.
With `CGGACATGCCCGGGCATGTCTCCTGACATGCCCGGGCATGTCCGACACTC (5mC at 11 33)` the median fluorescence was 21900 a.u.
For `CCACACGTCGTGGCATGCCTTCCTAGGCATGCCACGACGTGTGGACACTC (5mC at 9)`, the median fluorescence was 7480 a.u.
`CCACACCTGGTGGCATGCCTTCCTAGGCATGCCACCAGGTGTGGACACTC` has a median fluorescence of 7400 a.u.
`CGGACCGGCCCGGGCATGTCTCCTGACATGCCCGGGCCGGTCCGACACTC` has a median fluorescence of 12800 a.u.
For `CGGACATGCCGGGGCATGTCTCCTGACATGCCCCGGCATGTCCGACACTC`, the median fluorescence was 17700 a.u.
`CCACGCGTGGTGGCATGCCTTCCTAGGCATGCCACCACGCGTGGACACTC (5mC at 40)` gave a median fluorescence of 7500 a.u.
For `CCACACGTGGTGGCATGCCTTCCTAGGCATGCCACCACGTGTGGACACTC (5mC at 4)`, the median fluorescence was 7410 a.u.
`CCACCGGTGGTGGCATGCCTTCCTAGGCATGCCACCACCGGTGGACACTC` gave a median fluorescence of 6990 a.u.
`CGGACATGCCCGGGCATGTCTCCTGACATGCCCGGGCATGTCCGACACTC (5mC at 9)` gave a median fluorescence of 21300 a.u.
With `CGGACATGCCAGGGCATGTCTCCTGACATGCCCTGGCATGTCCGACACTC` the median fluorescence was 15300 a.u.
The median fluorescence of `CCACACGTGGTGGCGTGCCTTCCTAGGCACGCCACCACGTGTGGACACTC (5mC at 14 30)` is reported as 4980 a.u.
For `CGGACCTGCCCGGGCATGTCTCCTGACATGCCCGGGCAGGTCCGACACTC`, the median fluorescence was 14800 a.u.

Set 5
Target: RNA binding protein fox-1 homolog 2, RRM domain, GST-SBP tag (RBFOX2, Homo sapiens, UniProt O43251-10, residues 100-194)
Method: RNA Bind-n-Seq
Form: RNA
Medium: in vitro
Concentration: 365 nM
Notes: natural RNA segment, single round, ends assumed
Reference: no-protein control
Reading: higher = stronger binding
Shared flanks, not repeated: GGGAGUUCUACAGUCCGACGAUC … UGGAAUUCUCGGGUGCCAA
Residues (chain): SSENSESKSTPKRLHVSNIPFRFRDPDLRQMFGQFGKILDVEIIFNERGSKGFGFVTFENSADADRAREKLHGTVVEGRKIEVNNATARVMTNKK
`UGGGGCUUAGAGUCCGUGCAGGUGGGGAUAUGGGUAAAUCUAGGAGAACUCACAGAUCUUUAUAUGAGGACAGUGCUGAGGACUUUCUCAUGGCUCCAUCCUUUUGGUCC` — result for “RBNS enrichment (R)”: 0.464.
`AUUAGGAUUUUCUGUUUUAUAGUAAAUAGUUGGUAUUUGGUAGUCCACAAUUAAAGUCAUUGCAUUAAUUUUACAAAUUAUAGAUUUAGAAAUGAUUCUUAAGUUAUUGG` — result for “RBNS enrichment (R)”: 0.569.
`GGCUCCAUGGGGAGCCAUCUAAGUUCUUUUCUUUUGGAAGAUUGGGUGUCUCGGAGAGUUGCCAUAUCUCCUUGUGUGAAUUGCGUGCUUGGAAGCAAUUUUUAAAGGGA`: “RBNS enrichment (R)” 3.27.
`CUCUGCAGUGGUUUCAAGGACAAAUAGUGUCCAAUGUAUUGGGCCAUUUUUCCUGCUGUUUUUAUACUCAACUUCUCAAAAUGAAAAAAGCUUUUAUUUUUCCUUUGACU` — result for “RBNS enrichment (R)”: 0.533.
For `AUAGCAGAGGAUUUUAUACACAAAUAUAUUUUGUUUGUAAUGAGCCAUUCUCAAUAAAUAUUCUCACGUACAGUGGUAGCACCCUUUGUCUUGUCGUCAUGAAAGCCCUA`, “RBNS enrichment (R)” read 0.32.
For `ACUCUACACACUUCCUAGUCACGCAGGAUCCCUGUAGCCAAAACAGUAUAUGUUCCAGCUGCAGAGAGCAGACUGCUCUCAGCUUGCCUAGCACCUUAGGGGAGGGAAGA`, “RBNS enrichment (R)” read 0.418.
`UGAGUGUGAUCAAAUCUAGUCUCACUCCCACUUUUUAGUCUCACUCCUACUUUUGUCCACCACCCCUGCCUCCUGGAUCUUCUCCCACUUUUUUUUUCAGCUUUAGGACC` — result for “RBNS enrichment (R)”: 1.06.
`CCUAAGGGACCUCGCUCCAGCUGGUUGGGCACAGCAGGCUCCUGCCCUGGUGCUUUCAGCUUCCCCCAGCUAGGCCUGACCCUGGCUCUUGCUGUAGGCCACAUGCUGAA` — result for “RBNS enrichment (R)”: 0.236.

For quick reference, copied from above (set 5):
For `AUAGCAGAGGAUUUUAUACACAAAUAUAUUUUGUUUGUAAUGAGCCAUUCUCAAUAAAUAUUCUCACGUACAGUGGUAGCACCCUUUGUCUUGUCGUCAUGAAAGCCCUA`, “RBNS enrichment (R)” read 0.32.
`UGGGGCUUAGAGUCCGUGCAGGUGGGGAUAUGGGUAAAUCUAGGAGAACUCACAGAUCUUUAUAUGAGGACAGUGCUGAGGACUUUCUCAUGGCUCCAUCCUUUUGGUCC` — result for “RBNS enrichment (R)”: 0.464.
`GGCUCCAUGGGGAGCCAUCUAAGUUCUUUUCUUUUGGAAGAUUGGGUGUCUCGGAGAGUUGCCAUAUCUCCUUGUGUGAAUUGCGUGCUUGGAAGCAAUUUUUAAAGGGA`: “RBNS enrichment (R)” 3.27.
For `ACUCUACACACUUCCUAGUCACGCAGGAUCCCUGUAGCCAAAACAGUAUAUGUUCCAGCUGCAGAGAGCAGACUGCUCUCAGCUUGCCUAGCACCUUAGGGGAGGGAAGA`, “RBNS enrichment (R)” read 0.418.
`AUUAGGAUUUUCUGUUUUAUAGUAAAUAGUUGGUAUUUGGUAGUCCACAAUUAAAGUCAUUGCAUUAAUUUUACAAAUUAUAGAUUUAGAAAUGAUUCUUAAGUUAUUGG` — result for “RBNS enrichment (R)”: 0.569.
`CUCUGCAGUGGUUUCAAGGACAAAUAGUGUCCAAUGUAUUGGGCCAUUUUUCCUGCUGUUUUUAUACUCAACUUCUCAAAAUGAAAAAAGCUUUUAUUUUUCCUUUGACU` — result for “RBNS enrichment (R)”: 0.533.
`CCUAAGGGACCUCGCUCCAGCUGGUUGGGCACAGCAGGCUCCUGCCCUGGUGCUUUCAGCUUCCCCCAGCUAGGCCUGACCCUGGCUCUUGCUGUAGGCCACAUGCUGAA` — result for “RBNS enrichment (R)”: 0.236.
`UGAGUGUGAUCAAAUCUAGUCUCACUCCCACUUUUUAGUCUCACUCCUACUUUUGUCCACCACCCCUGCCUCCUGGAUCUUCUCCCACUUUUUUUUUCAGCUUUAGGACC` — result for “RBNS enrichment (R)”: 1.06.
